Measured values of several laboratories.
Each line is one published result; not all experiments were run side by side. ± marks the error that the study gave.

CCCC[C@H](NC(=O)CCCCCCCNC(=O)c1ccc(NN)nc1)C(=O)N[C@H]1CC(=O)NCCCC[C@@H](C(N)=O)NC(=O)[C@H](Cc2c[nH]c3ccccc23)NC(=O)[C@H](CCCNC(=N)N)NC(=O)[C@@H](Cc2ccccc2)NC(=O)[C@H](Cc2c[nH]cn2)NC1=O [technetium-99m labelled] — uptake (C57 mouse, B16/F1 melanoma, muscle; intravenous, 4 h): 0.04 ± 0.03 %ID/g
CCCCCCCCCCCCCCCCCC(=O)OC[C@H](NC(=O)[C@H](Cc1c[nH]c2ccccc12)NC(=O)[C@H](Cc1c[nH]cn1)NC(=O)[C@@H]1CCC(=O)N1)C(=O)N[C@@H](Cc1ccc(O)cc1)C(=O)N[C@H](CC(C)C)C(=O)N[C@@H](CC(C)C)C(=O)N[C@@H](CCCNC(=N)N)C(=O)N1CCC[C@H]1C(=O)NCC — time to degradation (HPLC; human plasma; 1 mg/mL, 37 °C, 50% degraded): 4540 min
COc1cc(OC)cc(C2=C3c4ccccc4C(c4ccc(NC(=S)NCCOCCOCCOCCC(=O)N[C@@H](CC(C)C)C(=O)N[C@@H](C)C(=O)N[C@@H](CCCNC(=N)N)C(=O)N[C@@H](CC(C)C)C(=O)N[C@@H](CC(C)C)C(=O)N[C@H](C(N)=O)[C@@H](C)O)cc4)=[N+]3[B-](F)(F)n3c2c2ccccc2c3-c2ccc(NC(=S)NCCNC(=O)CCCC[C@@H]3SC[C@@H]4NC(=O)N[C@@H]43)cc2)c1 — emission maximum (DMSO): 689 nm
CSCC[C@H](NC(=O)[C@H](CC(C)C)NC(=O)[C@H](Cc1c[nH]cn1)NC(=O)CNC(=O)[C@@H](NC(=O)[C@H](C)NC(=O)[C@H](Cc1c[nH]c2ccccc12)NC(=O)[C@H](CCC(N)=O)NC(=O)CNC(=O)[C@H](CO)NC(=O)CNC(=O)CCCCCCCNC(=O)CCC(=O)Nc1ccc(CNC23CNCCNCC(N)(CNCCNC2)CNCCNC3)cc1)C(C)C)C(N)=O [copper-64 labelled] — tissue uptake (female SCID mice, PC-3 xenograft, liver; intravenous, 0.6 MBq, 4 h): 2.96 ± 0.138 %ID/g
CCCC[C@H](NC(=O)CNC(=O)[C@H](CO)NC(=O)CNC(=O)c1ccc(NN)nc1)C(=O)N[C@H]1CC(=O)NCCCC[C@@H](C(N)=O)NC(=O)[C@H](Cc2c[nH]c3ccccc23)NC(=O)[C@H](CCCNC(=N)N)NC(=O)[C@@H](Cc2ccccc2)NC(=O)[C@H](Cc2c[nH]cn2)NC1=O [technetium-99m labelled] — uptake ratio (C57 mouse, B16/F1 melanoma; 2 h; relative to: tumour over liver): 32.3
CSCC[C@H](NC(=O)[C@H](CC(C)C)NC(=O)[C@H](Cc1c[nH]cn1)NC(=O)CNC(=O)[C@@H](NC(=O)[C@H](C)NC(=O)[C@H](Cc1c[nH]c2ccccc12)NC(=O)[C@H](CCC(N)=O)NC(=O)CCCCCNC(=O)CNC(=O)CNC(=O)CNC(=O)CSC(C)=O)C(C)C)C(N)=O [technetium-99m labelled] — tissue uptake (Swiss mouse, muscle; intravenous, 18.5 MBq, 90 min): 0.1 ± 0.04 %ID/g
N=C(N)NCCC[C@@H]1NC(=O)[C@H](CCCCNC(=O)CCOCCOCCOCCOCCNC(=O)CC[C@H](NC(=O)CCOCCOCCOCCOCCNC(=O)CC[C@H](NC(=O)CN2CCN(CC(=O)O)CCN(CC(=O)O)CCN(CC(=O)O)CC2)C(=O)NCCOCCOCCOCCOCCC(=O)N[C@@H](CCC(=O)NCCOCCOCCOCCOCCC(=O)NCCCC[C@@H]2NC(=O)[C@@H](Cc3ccccc3)NC(=O)[C@H](CC(=O)O)NC(=O)CNC(=O)[C@H](CCCNC(=N)N)NC2=O)C(=O)NCCOCCOCCOCCOCCC(=O)NCCCC[C@@H]2NC(=O)[C@@H](Cc3ccccc3)NC(=O)[C@H](CC(=O)O)NC(=O)CNC(=O)[C@H](CCCNC(=N)N)NC2=O)C(=O)NCCOCCOCCOCCOCCC(=O)NCCCC[C@@H]2NC(=O)[C@@H](Cc3ccccc3)NC(=O)[C@H](CC(=O)O)NC(=O)CNC(=O)[C@H](CCCNC(=N)N)NC2=O)NC(=O)[C@@H](Cc2ccccc2)NC(=O)[C@H](CC(=O)O)NC(=O)CNC1=O [indium-111 labelled] — intact compound (radio-HPLC; athymic nude mice, feces; intravenous, 120 min post-injection): ~45%
CCCC[C@H](NC(=O)CNC(=O)CNC(=O)c1ccc(NN)nc1)C(=O)N[C@H]1CC(=O)NCCCC[C@@H](C(N)=O)NC(=O)[C@H](Cc2c[nH]c3ccccc23)NC(=O)[C@H](CCCNC(=N)N)NC(=O)[C@@H](Cc2ccccc2)NC(=O)[C@H](Cc2c[nH]cn2)NC1=O [technetium-99m labelled] — tissue uptake ratio (C57 mouse, B16/F1 melanoma-bearing; intravenous, 2 h; relative to: tumour over blood): 83.2
N=C(N)NCCC[C@@H]1NC(=O)[C@H](CCCCNC(=O)CC[C@H](NC(=O)CCOCCOCCOCCOCCNC(=O)CC[C@H](NC(=O)CN2CCN(CC(=O)O)CCN(CC(=O)O)CCN(CC(=O)O)CC2)C(=O)NCCOCCOCCOCCOCCC(=O)N[C@@H](CCC(=O)NCCCC[C@@H]2NC(=O)[C@@H](Cc3ccccc3)NC(=O)[C@H](CC(=O)O)NC(=O)CNC(=O)[C@H](CCCNC(=N)N)NC2=O)C(=O)NCCCC[C@@H]2NC(=O)[C@@H](Cc3ccccc3)NC(=O)[C@H](CC(=O)O)NC(=O)CNC(=O)[C@H](CCCNC(=N)N)NC2=O)C(=O)NCCCC[C@@H]2NC(=O)[C@@H](Cc3ccccc3)NC(=O)[C@H](CC(=O)O)NC(=O)CNC(=O)[C@H](CCCNC(=N)N)NC2=O)NC(=O)[C@@H](Cc2ccccc2)NC(=O)[C@H](CC(=O)O)NC(=O)CNC1=O [indium-111 labelled] — tissue uptake (female athymic nude mice, liver; intravenous, 3 µCi, 1 h, U-87 MG glioma xenograft): 2.39 %ID/g
CC(C)C[C@H](NC(=O)[C@@H]1CCCN1C(=O)[C@H](CCCCN)NC(=O)[C@@H](N)CO)C(=O)N1CCC[C@H]1C(=O)N[C@@H](CCC(=O)O)C(=O)N[C@H](C(=O)N[C@H](C(=O)N[C@@H](CC(=O)O)C(=O)N[C@@H](CCC(=O)O)C(=O)N[C@@H](Cc1ccc(O)cc1)C(=O)N[C@@H](Cc1cn(CCOCCOCCOCCNC(=O)CCc2ccc(O)c(CN(CCN(CC(=O)O)Cc3cc(CCC(=O)NCCCC[C@H](NC(=O)N[C@@H](CCC(=O)O)C(=O)O)C(=O)O)ccc3O)CC(=O)O)c2)nn1)C(=O)O)[C@@H](C)O)C(C)C [gallium-68 labelled] — standardized uptake value (NMRI nu/nu mice, LNCaP tumour, adrenals; 10 MBq, high molar activity): 1.1 g/g
N=C(N)NCCC[C@@H]1NC(=O)[C@H](CCCCNC(=O)CCOCCOCCOCCOCCNC(=O)CN2CCN(CC(=O)O)CCN(CC(=O)O)CCN(CC(=O)O)CC2)NC(=O)[C@@H](Cc2ccccc2)NC(=O)[C@H](CC(=O)O)NC(=O)CNC1=O [indium-111 labelled] — tumour to tissue ratio (athymic nude mice, female, U-87 MG glioma xenograft, tumour and liver; intravenous, 4 h; relative to: tumour over liver): 2.83 ± 0.14
N=C(N)NCCC[C@@H]1NC(=O)[C@H](CCCCNC(=O)CNC(=O)CNC(=O)CNC(=O)CC[C@H](NC(=O)CNC(=O)CNC(=O)CNC(=O)[C@H](CCCCNC(=O)c2ccc(NN)nc2)NC(=O)c2ccc(NN)nc2)C(=O)NCC(=O)NCC(=O)NCC(=O)NCCCC[C@@H]2NC(=O)[C@@H](Cc3ccccc3)NC(=O)[C@H](CC(=O)O)NC(=O)CNC(=O)[C@H](CCCNC(=N)N)NC2=O)NC(=O)[C@@H](Cc2ccccc2)NC(=O)[C@H](CC(=O)O)NC(=O)CNC1=O [technetium-99m labelled] — tissue uptake (female athymic nude mice, eyes; intravenous, 0.1 MBq, 1 h, U-87 MG glioma xenograft): 0.92 ± 0.19 %ID/g
N=C(N)NCCC[C@@H]1NC(=O)[C@H](CCCCNC(=O)CC[C@H](NC(=O)CCOCCOCCOCCOCCNC(=O)CN2CCN(CC(=O)O)CCN(CC(=O)O)CCN(CC(=O)O)CC2)C(=O)NCCCC[C@@H]2NC(=O)[C@@H](Cc3ccccc3)NC(=O)[C@H](CC(=O)O)NC(=O)CNC(=O)[C@H](CCCNC(=N)N)NC2=O)NC(=O)[C@@H](Cc2ccccc2)NC(=O)[C@H](CC(=O)O)NC(=O)CNC1=O [indium-111 labelled] — tissue uptake (female athymic nude mice, intestine; intravenous, 3 µCi, 72 h, U-87 MG glioma xenograft): 1.3 ± 0.52 %ID/g
CSCC[C@H](NC(=O)[C@H](CC(C)C)NC(=O)[C@H](Cc1c[nH]cn1)NC(=O)CNC(=O)[C@@H](NC(=O)[C@H](C)NC(=O)[C@H](Cc1c[nH]c2ccccc12)NC(=O)[C@H](CCC(N)=O)NC(=O)[C@H](CC(N)=O)NC(=O)CNC(=O)[C@H](Cc1ccc(O)cc1)NC(=O)[C@H](CCCNC(=N)N)NC(=O)[C@H](CCC(N)=O)NC(=O)[C@@H]1CCCN1C(=O)CN1CCN(CC(=O)O)CCN(CC(=O)O)CCN(CC(=O)O)CC1)C(C)C)C(N)=O [indium-111 labelled] — intact peptide (radio-HPLC; Swiss nu/nu mice, blood; intravenous, 1 nmol, 5 min): 20.6%

Some of these lines once more:
N=C(N)NCCC[C@@H]1NC(=O)[C@H](CCCCNC(=O)CCOCCOCCOCCOCCNC(=O)CC[C@H](NC(=O)CCOCCOCCOCCOCCNC(=O)CC[C@H](NC(=O)CN2CCN(CC(=O)O)CCN(CC(=O)O)CCN(CC(=O)O)CC2)C(=O)NCCOCCOCCOCCOCCC(=O)N[C@@H](CCC(=O)NCCOCCOCCOCCOCCC(=O)NCCCC[C@@H]2NC(=O)[C@@H](Cc3ccccc3)NC(=O)[C@H](CC(=O)O)NC(=O)CNC(=O)[C@H](CCCNC(=N)N)NC2=O)C(=O)NCCOCCOCCOCCOCCC(=O)NCCCC[C@@H]2NC(=O)[C@@H](Cc3ccccc3)NC(=O)[C@H](CC(=O)O)NC(=O)CNC(=O)[C@H](CCCNC(=N)N)NC2=O)C(=O)NCCOCCOCCOCCOCCC(=O)NCCCC[C@@H]2NC(=O)[C@@H](Cc3ccccc3)NC(=O)[C@H](CC(=O)O)NC(=O)CNC(=O)[C@H](CCCNC(=N)N)NC2=O)NC(=O)[C@@H](Cc2ccccc2)NC(=O)[C@H](CC(=O)O)NC(=O)CNC1=O [indium-111 labelled] — intact compound (radio-HPLC; athymic nude mice, feces; intravenous, 120 min post-injection): ~45%
CCCC[C@H](NC(=O)CNC(=O)CNC(=O)c1ccc(NN)nc1)C(=O)N[C@H]1CC(=O)NCCCC[C@@H](C(N)=O)NC(=O)[C@H](Cc2c[nH]c3ccccc23)NC(=O)[C@H](CCCNC(=N)N)NC(=O)[C@@H](Cc2ccccc2)NC(=O)[C@H](Cc2c[nH]cn2)NC1=O [technetium-99m labelled] — tissue uptake ratio (C57 mouse, B16/F1 melanoma-bearing; intravenous, 2 h; relative to: tumour over blood): 83.2
